Published values from different studies.
ROPGAP3: ROPGAP3 (Arabidopsis thaliana, UniProt Q8GYY5)
UniProt Q8GYY5, sequence (whole entry, looked up): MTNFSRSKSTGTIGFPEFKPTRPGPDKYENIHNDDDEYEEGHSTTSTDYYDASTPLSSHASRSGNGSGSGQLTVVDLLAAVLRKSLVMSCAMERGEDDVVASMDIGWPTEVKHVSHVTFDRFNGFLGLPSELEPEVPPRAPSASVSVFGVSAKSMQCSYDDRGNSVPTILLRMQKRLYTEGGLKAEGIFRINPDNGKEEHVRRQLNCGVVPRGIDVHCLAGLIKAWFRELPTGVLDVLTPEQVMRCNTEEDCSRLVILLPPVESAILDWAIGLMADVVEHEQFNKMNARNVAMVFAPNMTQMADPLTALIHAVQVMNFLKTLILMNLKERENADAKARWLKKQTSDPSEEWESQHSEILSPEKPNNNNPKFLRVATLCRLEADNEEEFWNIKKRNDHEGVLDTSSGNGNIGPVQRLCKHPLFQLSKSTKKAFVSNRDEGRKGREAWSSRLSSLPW
T1: RAD21/STAG2 Scc1 80-1060?, x; chain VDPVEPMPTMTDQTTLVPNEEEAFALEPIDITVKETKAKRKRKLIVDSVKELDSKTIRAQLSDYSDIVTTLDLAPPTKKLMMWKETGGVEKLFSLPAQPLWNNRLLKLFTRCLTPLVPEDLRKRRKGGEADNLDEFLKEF; chain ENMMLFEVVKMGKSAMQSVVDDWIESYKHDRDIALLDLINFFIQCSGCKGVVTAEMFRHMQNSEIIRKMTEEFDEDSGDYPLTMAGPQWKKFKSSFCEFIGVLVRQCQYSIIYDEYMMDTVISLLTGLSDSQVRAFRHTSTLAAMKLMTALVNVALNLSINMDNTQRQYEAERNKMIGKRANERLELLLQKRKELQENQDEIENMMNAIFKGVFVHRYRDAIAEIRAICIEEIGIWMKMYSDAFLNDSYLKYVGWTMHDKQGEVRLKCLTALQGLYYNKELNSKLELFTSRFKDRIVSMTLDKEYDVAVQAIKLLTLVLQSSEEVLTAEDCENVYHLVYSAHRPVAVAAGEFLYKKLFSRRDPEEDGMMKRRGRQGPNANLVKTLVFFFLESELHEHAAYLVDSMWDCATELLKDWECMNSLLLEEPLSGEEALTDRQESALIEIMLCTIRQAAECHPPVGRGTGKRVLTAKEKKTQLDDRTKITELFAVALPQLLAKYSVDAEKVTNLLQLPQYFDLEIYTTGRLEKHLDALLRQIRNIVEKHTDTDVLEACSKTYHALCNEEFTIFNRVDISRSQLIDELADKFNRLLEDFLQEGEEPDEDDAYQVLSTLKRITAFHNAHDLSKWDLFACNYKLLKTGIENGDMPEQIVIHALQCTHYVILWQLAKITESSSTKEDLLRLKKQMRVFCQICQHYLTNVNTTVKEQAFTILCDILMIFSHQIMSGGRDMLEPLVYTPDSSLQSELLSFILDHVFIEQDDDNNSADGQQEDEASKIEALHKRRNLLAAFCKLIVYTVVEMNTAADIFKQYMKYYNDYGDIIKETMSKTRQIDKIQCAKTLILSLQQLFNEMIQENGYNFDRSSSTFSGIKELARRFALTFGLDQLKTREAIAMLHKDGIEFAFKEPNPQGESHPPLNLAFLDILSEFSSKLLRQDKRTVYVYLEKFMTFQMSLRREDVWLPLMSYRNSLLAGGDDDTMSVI
B1: Cbx1 (Mus musculus, UniProt P83917); chain MGKKQNKKKVEEVLEEEEEEYVVEKVLDRRVVKGKVEYLLKWKGFSDEDNTWEPEENLDCPDLIAEFLQSQKTAHETDKSEGGKRKADSDSEDKGEESKPKKKKEESEKPRGFARGLEPERIIGATDSSGELMFLMKWKNSDEADLVPAKEANVKCPQVVISFYEERLTWHSYPSEDDDKKDDKN
B2: PRP40 1-75 (Saccharomyces cerevisiae, UniProt P33203); chain MSIWKEAKDASGRIYYYNTLTKKSTWEKPKELISQEELLLRENGWKAAKTADGKVYYYNPTTRETSWTIPAFEKK
B3: NuoC (Mycolicibacterium smegmatis, UniProt A0QU34); chain MSTSNGSANGTNGVGLPRGDEPEIIAVRRGMFGNRDTGDTSGYGRLVRPVALPGSTPRPYGGYFDAVMDRLAEVLGEERYAMSIERVVVYRDQLTIEVSRVQLPAVASVLRDDPDLRFELCLGVSGVHYPEDTGRELHAVYPLMSITHNRRIQLEVAAPDADPHIPSLYAVYPTTDWHERETYDFFGIIFDGHPSLTRIEMPDDWEGHPQRKDYPLGGIPVEYHGAQIPPPDQRRSYS
B4: PIN1 167-460 (Arabidopsis thaliana, UniProt Q9C6B8); chain DTAGSIVSIHVDSDIMSLDGRQPLETEAEIKEDGKLHVTVRRSNASRSDIYSRRSQGLSATPRPSNLTNAEIYSLQSSRNPTPRGSSFNHTDFYSMMASGGGRNSNFGPGEAVFGSKGPTPRPSNYEEDGGPAKPTAAGTAAGAGRFHYQSGGSGGGGGAHYPAPNPGMFSPNTGGGGGTAAKGNAPVVGGKRQDGNGRDLHMFVWSSSASPVSDVFGGGGGNHHADYSTATNDHQKDVKISVPQGNSNDNQYVEREEFSFGNKDDDSKVLATDGGNNISNKTTQAKVMPPTSV
B5: atpD 1-464 (Acinetobacter baumannii, UniProt A3M144); chain MSSGRIIQIIGAVIDVEFERTSVPKIYDALQVDGTETTLEVQQQLGDGVVRTIAMGSTEGLKRGLTVTSTNAPISVPVGTATLGRIMDVLGRPIDEAGPVATEERLPIHRQAPSYAEQAASTDLLETGIKVIDLLCPFAKGGKVGLFGGAGVGKTVNMMELINNIAKAHSGLSVFAGVGERTREGNDFYHEMKDSNVLDKVAMVYGQMNEPPGNRLRVALTGLTMAEYFRDEKDENGKGRDVLLFVDNIYRYTLAGTEVSALLGRMPSAVGYQPTLAEEMGVLQERITSTKSGSITSIQAVYVPADDLTDPSPATTFAHLDATVVLSRDIASSGIYPAIDPLDSTSRQLDPLVVGQEHYEIARAVQNVLQRYKELKDIIAILGMDELAEEDKLVVYRARKIQRFFSQPFHVAEVFTGAPGKLVPLKETIRGFKGLLAGEYDHIPEQAFYMVGGIDEVIAKAEKL
B6: CENPW K29A/K30A/R34A/E36A/T60V (Homo sapiens, UniProt Q5EE01); sequence looked up; chain MALSTIVSQRKQIKRKAPRGFLKRVFKRAAPQLALAKSGDLLVHLNCLLFVHRLAEESRVNACASKCRVINKEHVLAAAKVILKKSRG
B7: ROP6 (Arabidopsis thaliana, UniProt Q38912); chain MSASRFIKCVTVGDGAVGKTCLLISYTSNTFPTDYVPTVFDNFSANVIVDGNTINLGLWDTAGQEDYNRLRPLSYRGADVFLLAFSLVSKASYENVSKKWVPELRHYAPGVPIILVGTKLDLRDDKQFFAEHPGAVPISTAQGEELKKLIGAPAYIECSAKTQQNVKAVFDAAIKVVLQPPKNKKKKKRKSQKGCSIL
B8: BAG4 376-457 (Homo sapiens, UniProt O95429); chain TPPSIKKIIHVLEKVQYLEQEVEEFVGKKTDKAYWLLEEMLTKELLELDSVETGGQDSVRQARKEAVCKIQAILEKLEKKGL
B9: rplK (Mycobacterium smegmatis, UniProt A0QS45); chain MAPKKKVAGLIKLQIQAGQANPAPPVGPALGQHGVNIMEFCKAYNAATESQRGNVIPVEITVYEDRSFTFALKTPPAAKLLLKAAGVQKGSGEPHKTKVAKVTWDQVREIAETKKADLNANDIDAAAKIIAGTARSMGITVE
B10: KTN1 965-1124 (Homo sapiens, UniProt Q86UP2); sequence looked up; chain DVQDENKLFKSQIEQLKQQNYQQASSFPPHEELLKVISEREKEISGLWNELDSLKDAVEHQRKKNNDLREKNWEAMEALASTEKMLQDKVNKTSKERQQQVEAVELEAKEVLKKLFPKVSVPSNLSYGEWLHGFEKKAKECMAGTSGSEEVKVLEHKLKE
B11: PPP2R2A loopless, /165-end 1-125 (UniProt P63151); chain MAGAGGGNDIQWCFSQVKGAVDDDVAEADIISTVEFNHSGELLATGDKGGRVVIFQQEQENKIQSHSRGEYNVYSTFQSHEPEFDYLKSLEIEEKINKIRWLPQKNAAQFLLSTNDKTIKLWKISNGEASPRRIFANAHTYHINSISINSDYETYLSADDLRINLWHLEITDRSFNIVDIKPANMEELTEVITAAEFHPNSCNTFVYSSSKGTIRLCDMRASALCDRHSKLFEEPEDPSNRSFFSEIISSISDVKFSHSGRYMMTRDYLSVKIWDLNMENRPVETYQVHEYLRSKLCSLYENDCIFDKFECCWNGSDSVVMTGSYNNFFRMFDRNTKRDITLEASRENNKPRTVLKPRKVCASGKRKKDEISVDSLDFNKKILHTAWHPKENIIAVATTNNLYIFQDKVN
B12: PIN2 167-485 (Arabidopsis thaliana, UniProt Q9LU77); chain ETAGSITSFRVDSDVISLNGREPLQTDAEIGDDGKLHVVVRRSSAASSMISSFNKSHGGGLNSSMITPRASNLTGVEIYSVQSSREPTPRASSFNQTDFYAMFNASKAPSPRHGYTNSYGGAGAGPGGDVYSLQSSKGVTPRTSNFDEEVMKTAKKAGRGGRSMSGELYNNNSVPSYPPPNPMFTGSTSGASGVKKKESGGGGSGGGVGVGGQNKEMNMFVWSSSASPVSEANAKNAMTRGSSTDVSTDPKVSIPPHDNLATKAMQNLIENMSPGRKGHVEMDQDGNNGGKSPYMGKKGSDVEDGGPGPRKQQMPPASV
B13: gpM 1-109 (bacteriophage lambda, UniProt P03737); chain MKTFRWKVKPGMDVASVPSVRKVRFGDGYSQRAPAGLNANLKTYSVTLSVPREEATVLESFLEEHGGWKSFLWTPPYEWRQIKVTCAKWSSRVSMLRVEFSAEFEQVVN
B14: EPS15 648-780 (Homo sapiens, UniProt P42566); chain KGSDPFASDCFFRQSTDPFATSSTDPFSAANNSSITSVETLKHNDPFAPGGTVVAASDSATDPFASVFGNESFGGGFADFSTLSKVNNEDPFRSATSSSVSNVVITKNVFEETSVKSEDEPPALPPKIGTPTR
UniProt Q7X659, sequence (whole entry, looked up): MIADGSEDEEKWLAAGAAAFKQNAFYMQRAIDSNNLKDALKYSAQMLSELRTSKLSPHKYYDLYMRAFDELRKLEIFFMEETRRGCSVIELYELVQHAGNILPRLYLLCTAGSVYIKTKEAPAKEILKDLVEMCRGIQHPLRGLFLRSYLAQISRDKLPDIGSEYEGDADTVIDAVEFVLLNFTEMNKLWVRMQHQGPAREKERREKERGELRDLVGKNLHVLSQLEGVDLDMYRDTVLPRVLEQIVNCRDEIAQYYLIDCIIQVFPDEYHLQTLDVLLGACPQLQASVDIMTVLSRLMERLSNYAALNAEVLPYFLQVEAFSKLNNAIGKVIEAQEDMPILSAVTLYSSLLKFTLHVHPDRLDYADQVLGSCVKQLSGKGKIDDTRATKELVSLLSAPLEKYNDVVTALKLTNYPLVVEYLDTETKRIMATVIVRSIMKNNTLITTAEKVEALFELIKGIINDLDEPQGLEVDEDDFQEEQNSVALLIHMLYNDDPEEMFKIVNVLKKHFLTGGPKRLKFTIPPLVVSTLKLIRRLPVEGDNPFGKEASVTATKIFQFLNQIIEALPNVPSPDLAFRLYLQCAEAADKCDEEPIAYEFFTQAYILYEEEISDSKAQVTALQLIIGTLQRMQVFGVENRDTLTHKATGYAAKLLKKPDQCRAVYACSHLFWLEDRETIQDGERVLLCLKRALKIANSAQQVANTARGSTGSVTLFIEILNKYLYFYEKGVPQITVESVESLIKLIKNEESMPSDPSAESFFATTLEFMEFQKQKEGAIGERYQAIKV
UniProt P49951, sequence (whole entry, looked up): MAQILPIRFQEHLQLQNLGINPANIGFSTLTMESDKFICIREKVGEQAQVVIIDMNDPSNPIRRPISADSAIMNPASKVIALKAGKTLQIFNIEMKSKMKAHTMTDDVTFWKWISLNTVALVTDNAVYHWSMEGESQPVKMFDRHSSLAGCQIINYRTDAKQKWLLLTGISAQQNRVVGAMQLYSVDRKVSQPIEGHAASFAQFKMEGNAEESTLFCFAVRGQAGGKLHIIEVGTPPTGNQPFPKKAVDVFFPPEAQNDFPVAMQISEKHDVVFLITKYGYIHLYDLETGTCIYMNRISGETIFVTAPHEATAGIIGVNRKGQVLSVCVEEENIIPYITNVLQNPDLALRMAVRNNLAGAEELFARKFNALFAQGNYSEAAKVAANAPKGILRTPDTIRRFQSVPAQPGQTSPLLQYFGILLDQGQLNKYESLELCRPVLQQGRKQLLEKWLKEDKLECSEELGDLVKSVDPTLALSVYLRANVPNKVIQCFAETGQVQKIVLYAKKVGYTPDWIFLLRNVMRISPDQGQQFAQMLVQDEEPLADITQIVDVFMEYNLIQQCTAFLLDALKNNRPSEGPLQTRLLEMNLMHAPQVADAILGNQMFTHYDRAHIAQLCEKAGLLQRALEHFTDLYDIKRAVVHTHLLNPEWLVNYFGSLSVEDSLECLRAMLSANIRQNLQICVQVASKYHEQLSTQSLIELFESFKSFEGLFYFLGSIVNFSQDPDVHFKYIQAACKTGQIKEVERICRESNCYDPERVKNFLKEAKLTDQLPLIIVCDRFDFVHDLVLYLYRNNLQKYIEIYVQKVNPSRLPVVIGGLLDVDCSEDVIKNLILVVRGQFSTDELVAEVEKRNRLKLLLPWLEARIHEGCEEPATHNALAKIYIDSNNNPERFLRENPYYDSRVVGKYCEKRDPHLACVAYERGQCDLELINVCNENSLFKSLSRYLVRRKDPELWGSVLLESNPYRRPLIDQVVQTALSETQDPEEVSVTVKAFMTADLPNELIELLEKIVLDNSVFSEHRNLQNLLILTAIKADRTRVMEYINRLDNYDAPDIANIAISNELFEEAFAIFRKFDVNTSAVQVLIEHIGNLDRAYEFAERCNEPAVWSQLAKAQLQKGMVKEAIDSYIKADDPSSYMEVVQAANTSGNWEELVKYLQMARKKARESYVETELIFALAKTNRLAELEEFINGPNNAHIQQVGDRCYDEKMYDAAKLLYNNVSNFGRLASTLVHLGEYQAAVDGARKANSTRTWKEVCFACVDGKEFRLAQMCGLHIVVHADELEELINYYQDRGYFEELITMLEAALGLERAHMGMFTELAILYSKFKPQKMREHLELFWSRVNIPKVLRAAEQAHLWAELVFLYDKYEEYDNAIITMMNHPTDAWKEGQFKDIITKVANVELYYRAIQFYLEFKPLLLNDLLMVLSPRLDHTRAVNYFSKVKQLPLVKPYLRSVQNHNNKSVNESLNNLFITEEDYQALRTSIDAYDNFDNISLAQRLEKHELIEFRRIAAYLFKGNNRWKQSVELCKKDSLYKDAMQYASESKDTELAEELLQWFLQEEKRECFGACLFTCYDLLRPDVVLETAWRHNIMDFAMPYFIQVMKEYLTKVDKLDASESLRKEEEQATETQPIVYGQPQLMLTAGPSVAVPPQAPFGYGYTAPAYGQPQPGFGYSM
UniProt Q9LIQ9, sequence (whole entry, looked up): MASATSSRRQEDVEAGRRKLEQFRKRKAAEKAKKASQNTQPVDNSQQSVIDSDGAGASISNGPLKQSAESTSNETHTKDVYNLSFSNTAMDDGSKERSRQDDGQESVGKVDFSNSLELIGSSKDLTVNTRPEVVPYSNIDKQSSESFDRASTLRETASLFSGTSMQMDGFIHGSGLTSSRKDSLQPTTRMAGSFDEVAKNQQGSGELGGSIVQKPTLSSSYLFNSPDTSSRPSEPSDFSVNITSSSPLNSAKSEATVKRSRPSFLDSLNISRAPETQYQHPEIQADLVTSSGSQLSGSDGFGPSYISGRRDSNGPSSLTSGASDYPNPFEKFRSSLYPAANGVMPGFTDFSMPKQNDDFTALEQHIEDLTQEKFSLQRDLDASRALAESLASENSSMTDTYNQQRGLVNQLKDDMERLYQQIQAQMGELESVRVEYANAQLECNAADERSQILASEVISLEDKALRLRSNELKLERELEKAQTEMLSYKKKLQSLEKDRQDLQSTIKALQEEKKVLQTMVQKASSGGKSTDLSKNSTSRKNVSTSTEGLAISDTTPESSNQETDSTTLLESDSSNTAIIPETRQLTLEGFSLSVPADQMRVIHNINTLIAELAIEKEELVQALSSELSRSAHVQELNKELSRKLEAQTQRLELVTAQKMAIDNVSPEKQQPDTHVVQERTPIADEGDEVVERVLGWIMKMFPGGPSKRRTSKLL
UniProt Q12186, sequence (whole entry, looked up): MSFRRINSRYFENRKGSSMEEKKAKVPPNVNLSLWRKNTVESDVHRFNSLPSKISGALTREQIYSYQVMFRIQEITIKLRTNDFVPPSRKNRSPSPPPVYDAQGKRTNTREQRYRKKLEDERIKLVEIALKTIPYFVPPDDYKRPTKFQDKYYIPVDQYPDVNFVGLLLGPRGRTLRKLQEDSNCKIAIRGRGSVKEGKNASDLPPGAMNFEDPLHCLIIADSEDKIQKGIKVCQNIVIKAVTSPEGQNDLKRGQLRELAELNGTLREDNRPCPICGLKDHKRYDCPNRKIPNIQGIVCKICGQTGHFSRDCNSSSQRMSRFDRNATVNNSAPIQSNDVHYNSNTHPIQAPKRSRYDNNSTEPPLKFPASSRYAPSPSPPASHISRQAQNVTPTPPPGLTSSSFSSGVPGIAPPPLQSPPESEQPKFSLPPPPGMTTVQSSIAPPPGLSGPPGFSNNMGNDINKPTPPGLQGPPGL
UniProt P40381, sequence (whole entry, looked up): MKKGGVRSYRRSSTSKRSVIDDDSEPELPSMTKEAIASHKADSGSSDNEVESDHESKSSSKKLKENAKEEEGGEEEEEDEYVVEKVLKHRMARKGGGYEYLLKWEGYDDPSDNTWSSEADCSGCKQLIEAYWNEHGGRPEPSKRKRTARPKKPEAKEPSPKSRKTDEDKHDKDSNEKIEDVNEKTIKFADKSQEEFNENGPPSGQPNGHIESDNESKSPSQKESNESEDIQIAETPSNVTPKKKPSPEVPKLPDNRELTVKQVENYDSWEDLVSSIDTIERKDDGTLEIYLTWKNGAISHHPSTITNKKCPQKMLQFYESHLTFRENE
UniProt P0AF16, sequence (whole entry, looked up): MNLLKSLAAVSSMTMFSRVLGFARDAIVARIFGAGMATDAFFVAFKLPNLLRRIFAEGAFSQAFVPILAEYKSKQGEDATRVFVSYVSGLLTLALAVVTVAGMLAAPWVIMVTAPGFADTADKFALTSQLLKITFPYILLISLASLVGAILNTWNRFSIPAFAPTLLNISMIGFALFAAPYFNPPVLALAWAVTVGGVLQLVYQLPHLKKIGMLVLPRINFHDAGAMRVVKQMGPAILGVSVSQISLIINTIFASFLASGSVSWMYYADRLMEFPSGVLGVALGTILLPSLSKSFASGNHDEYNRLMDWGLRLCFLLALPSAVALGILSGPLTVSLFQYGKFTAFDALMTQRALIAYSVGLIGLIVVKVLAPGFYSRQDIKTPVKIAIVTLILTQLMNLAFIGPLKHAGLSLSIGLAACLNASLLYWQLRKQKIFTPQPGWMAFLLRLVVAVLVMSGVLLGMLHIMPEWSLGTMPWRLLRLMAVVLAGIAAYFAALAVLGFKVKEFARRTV

Molecule | tested on | test | test system | conditions | scale | endpoint | result
DNIKHVPGGGSVQIVYKPV (MAPT 295-313 (Homo sapiens, UniProt P10636-8)) | MAPT 255-441 P301L (Homo sapiens, UniProt P10636-8) | ThT fluorescence, TEM | peptide | – | – | binding | binds
BLI (Arabidopsis thaliana, UniProt Q9LIQ9) | VPS35A (Arabidopsis thaliana, UniProt Q7X659) | pull-down | – | – | – | binding | binds
B1 (Cbx1) | swi6 (Schizosaccharomyces pombe, UniProt P40381) | cross-linking | – | – | – | binding | binds
MPQLNGGGGDDLGANDELISFKDEGEQEEKSSENSSAERDLADVKSSLVNESE (TCF7L2 1-53 (Homo sapiens, UniProt Q9NQB0)) | CTNNB1 C619Y/E620K (Homo sapiens, UniProt P35222) | BLI | – | – | – | binding | binds
B2 (PRP40 1-75) | MSL5 (Saccharomyces cerevisiae, UniProt Q12186) | pull-down | – | – | – | binding | binds
MKYIINLAFCVLLLVAGDSIAYRVSQYLAPLVDTFTK (lys) | murJ 2-511 (Escherichia coli, UniProt P0AF16) | cryo-EM | – | – | – | binding | binds
B3 (NuoC) | nuoG (Mycolicibacterium smegmatis, UniProt A0QU30) | cryo-EM | – | – | – | binding | binds
B4 (PIN1 167-460) | ROPGAP3 | pull-down | – | 4 °C | – | binding | binds
B5 (atpD 1-464) | atpA 1-514 (Acinetobacter baumannii, UniProt A3M142) | cryo-EM | – | – | – | binding | binds
B6 (CENPW K29A/K30A/R34A/E36A/T60V) | CENPT (Homo sapiens, UniProt Q96BT3) | pull-down | – | – | – | binding | binds
B7 (ROP6) | ROPGAP3 | pull-down | – | in vitro | – | binding | binds
B8 (BAG4 376-457) | TNFRSF1A 356-441 (Homo sapiens, UniProt P19438) | fluorescence polarisation | – | – | – | binding | binds
B9 (rplK) | hflX (Mycobacterium smegmatis, UniProt A0QVY1) | cryo-EM | – | – | – | binding | binds
KLLITIHDRKEFAKFEEERARAKWDTANNPLYKEATSTFTNITYRGT (ITGB3 742-788 (Homo sapiens, UniProt P05106)) | TLN1 head 1-405 del139-168 (UniProt P26039) | pull-down | – | GST-β3 tail | – | binding | binds
MSI3 (Arabidopsis thaliana, UniProt O22469) | Histone H4 (Homo sapiens, UniProt P62805) | pull-down | – | – | – | binding | binds
NuoM (Mycolicibacterium smegmatis, UniProt A0QU24) | nuoL (Mycolicibacterium smegmatis, UniProt A0QU25) | cryo-EM | – | – | – | binding | binds
RKIFSGPKRSPTKAVYNARHWNHPDSEELPGPPVVKPQSVT (WAPL 540-580 (Homo sapiens, UniProt Q7Z5K2)) | T1, RAD21/STAG2 Scc1 80-1060?, x | pull-down | – | – | – | binding | binds
MSI2 (Arabidopsis thaliana, UniProt O22468) | Histone H3.1 (Homo sapiens, UniProt P68431) | pull-down | – | – | – | binding | binds
B10 (KTN1 965-1124) | QARS1 1-256 (Homo sapiens, UniProt P47897) | pull-down | – | – | – | binding | binds
B11 | ARPP19 (Homo sapiens, UniProt P56211) | NMR titration | – | – | – | binding | binds
insulin human | – | measured: GOT1 mRNA | uninfected mouse, brain | i.p., dose not given | reference: PBS | fold change | 1.58
B12 (PIN2 167-485) | ROPGAP3 | pull-down | – | 4 °C | – | binding | binds
B13 (gpM 1-109) | gpV tail tube protein (bacteriophage lambda, UniProt P03733) | cryo-EM | – | – | – | binding | binds
LQLQKGSDTEAQCE (INTS3 584-597; pS590/pT592) | NBN 1-334 (Homo sapiens, UniProt O60934) | ITC | peptide | – | – | binding | binds
B14 (EPS15 648-780) | CLTC 1-363 (Bos taurus, UniProt P49951) | NMR titration | – | – | – | binding | binds
